Assay results of several laboratories.
Each line is one published result; not all experiments were run side by side.
Sequence of UniProt O75116 (whole entry, looked up): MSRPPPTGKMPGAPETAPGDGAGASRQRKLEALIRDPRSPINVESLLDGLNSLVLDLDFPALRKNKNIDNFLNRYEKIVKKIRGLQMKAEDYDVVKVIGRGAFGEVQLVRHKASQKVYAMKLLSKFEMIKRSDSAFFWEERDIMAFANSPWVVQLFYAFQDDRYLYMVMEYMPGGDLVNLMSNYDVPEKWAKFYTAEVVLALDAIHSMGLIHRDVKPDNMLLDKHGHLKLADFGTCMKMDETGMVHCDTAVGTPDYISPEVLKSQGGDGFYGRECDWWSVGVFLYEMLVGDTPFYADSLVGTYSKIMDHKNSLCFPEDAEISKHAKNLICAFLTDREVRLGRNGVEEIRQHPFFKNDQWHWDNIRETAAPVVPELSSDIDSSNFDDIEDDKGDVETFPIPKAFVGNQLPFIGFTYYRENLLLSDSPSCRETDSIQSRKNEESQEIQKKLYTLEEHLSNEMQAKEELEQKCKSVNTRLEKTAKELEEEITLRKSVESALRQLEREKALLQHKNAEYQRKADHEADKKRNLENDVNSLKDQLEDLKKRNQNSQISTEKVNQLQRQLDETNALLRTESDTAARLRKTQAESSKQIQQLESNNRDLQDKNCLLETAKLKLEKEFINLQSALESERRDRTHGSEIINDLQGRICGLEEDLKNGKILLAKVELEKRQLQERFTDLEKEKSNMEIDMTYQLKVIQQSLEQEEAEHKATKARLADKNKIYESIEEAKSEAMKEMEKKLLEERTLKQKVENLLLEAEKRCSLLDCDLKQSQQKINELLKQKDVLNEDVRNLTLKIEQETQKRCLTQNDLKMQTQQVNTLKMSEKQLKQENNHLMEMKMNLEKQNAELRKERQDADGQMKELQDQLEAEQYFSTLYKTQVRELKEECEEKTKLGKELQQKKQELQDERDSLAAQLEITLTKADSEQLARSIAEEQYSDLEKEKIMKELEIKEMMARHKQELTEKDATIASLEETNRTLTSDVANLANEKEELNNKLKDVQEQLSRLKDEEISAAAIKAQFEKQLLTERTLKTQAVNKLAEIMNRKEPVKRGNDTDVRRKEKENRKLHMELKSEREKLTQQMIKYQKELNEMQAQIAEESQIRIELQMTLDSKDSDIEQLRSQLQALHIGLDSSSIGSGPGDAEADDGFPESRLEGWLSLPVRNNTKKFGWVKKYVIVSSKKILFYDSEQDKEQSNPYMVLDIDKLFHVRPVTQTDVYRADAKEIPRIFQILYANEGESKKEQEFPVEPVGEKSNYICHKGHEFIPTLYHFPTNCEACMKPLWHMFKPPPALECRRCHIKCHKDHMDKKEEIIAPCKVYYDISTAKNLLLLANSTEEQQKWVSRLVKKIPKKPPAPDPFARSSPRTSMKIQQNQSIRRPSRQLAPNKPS
Sequence of UniProt P06239 (whole entry, looked up): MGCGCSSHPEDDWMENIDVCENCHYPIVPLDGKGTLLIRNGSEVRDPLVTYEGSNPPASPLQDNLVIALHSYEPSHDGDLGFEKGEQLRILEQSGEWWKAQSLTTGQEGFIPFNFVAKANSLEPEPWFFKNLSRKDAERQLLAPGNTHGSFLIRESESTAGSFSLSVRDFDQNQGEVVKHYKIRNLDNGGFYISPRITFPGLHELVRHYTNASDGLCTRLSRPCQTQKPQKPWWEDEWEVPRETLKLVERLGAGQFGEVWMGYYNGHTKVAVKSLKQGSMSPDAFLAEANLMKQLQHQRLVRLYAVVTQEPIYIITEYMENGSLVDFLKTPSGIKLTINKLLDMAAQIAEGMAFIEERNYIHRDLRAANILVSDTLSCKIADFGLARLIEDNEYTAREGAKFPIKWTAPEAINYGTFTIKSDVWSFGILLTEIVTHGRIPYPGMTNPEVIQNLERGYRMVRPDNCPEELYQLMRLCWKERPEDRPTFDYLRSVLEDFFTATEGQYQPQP

CCCOc1ccc2c(C)c(CC)c(=O)oc2c1C gave a viability of 4.85% (PC-3; cell growth or viability, MTT; 1000 µg/mL).
S=C(Nc1ccccc1)Nc1ccc(Oc2nnc(-c3ccc(Cl)cc3)c3ccccc23)cc1 has a viability of 2.79% (MCF7; cell growth or viability, MTT; 10 µM, 24 h).
C[C@@H]1CC[C@@H]([C@](C)(O)Cn2cnc3ccccc32)[C@H](OCc2ccccc2)C1 gave an inhibition of 98.3% (A2780; cell growth or viability, MTT; 30 µM, 72 h).
CC(=NNC(=O)c1ccccc1Br)c1ccc(Nc2nnc(-c3ccc(Cl)cc3)c3ccccc23)cc1 gave a viability of 5.75% (MCF7; cell growth or viability, MTT; 10 µM, 24 h).
For Cc1[nH]c(C)c(-c2cccc(-c3ccc(OC(F)(F)F)cc3)c2)c(=O)c1Br, the IC50 was > 10 µM (HEK293; cell growth or viability).
The viability of Cc1ccc(C(CS(=O)(=O)c2ccccc2)=NNC2=NC(=O)C(=NNc3ccc([N+](=O)[O-])cc3)S2)cc1 is reported as 41.6% (WM 266-4; cell growth or viability, MTT; 6.3 µM, 48 h).
With O=C(Nc1ccc(Oc2nnc(-c3ccc(Cl)cc3)c3ccccc23)cc1)c1cccc([N+](=O)[O-])c1 the cell death was 96.4% (MCF7; cell growth or viability, MTT; 1.25 µM).
For CCN(O)N=Nc1ccc(S(=O)(=O)Nc2nccs2)cc1, the inhibition was 14.4% (ABTS scavenging; 20 µg/mL).
For C=C(C)Cn1nc(-c2ccc(CO)o2)c2ccccc21, the inhibition was 48% (RBE; cell growth or viability, ATP luminescence; 46 µM, 72 h).
COc1cc(-c2nn(CCN3CCC(N(C)C)CC3)c3ncnc(N)c23)ccc1NC(=O)OC(C)(C)C gave an EC50 of 16.3 µM (OE33; cell growth or viability, resazurin; 5 days).
COc1cc(-c2cncc3c2CN(C)Cc2cc(N4CCNCC4)ccc2-3)cc(OC)c1OC gave a remaining activity of 49% (Tyrosine-protein kinase Lck (LCK, Homo sapiens, UniProt P06239); enzyme activity, inhibitor; 1 µM).
Cc1c(Cc2ccccc2)c(=O)oc2c(C)c(OCC(=O)NN=Cc3ccco3)ccc12 gave a viability of 17.1% (PC-3; cell growth or viability, MTT; 125 µg/mL).
With CC(=NNC(=S)Nc1ccccc1)c1ccc(Nc2nnc(-c3ccc(Cl)cc3)c3ccccc23)cc1 the cell death was 92.8% (MCF7; cell growth or viability, MTT; 5 µM).
The inhibition zone of CN(Cc1ccc(C(C)(C)C)cc1)Cc1cccc2ccccc12 is reported as ≥ 55 mm (Trichophyton rubrum; microbial growth, disc diffusion; ATCC28188; 0.032 µg/mL, 6 days).
Cc1[nH]c(C)c(-c2ccc(OCc3cc(F)cc(F)c3)nc2)c(=O)c1Cl gave an IC50 of > 10 µM (HEK293; cell growth or viability).
CN(Cc1ccc(C2(C(F)(F)F)CC2)cc1)Cc1cccc2ccccc12 has an inhibition zone of ≥ 55 mm (Trichophyton rubrum; microbial growth, disc diffusion; ATCC28188; 0.512 µg/mL, 6 days).
For N#Cc1ccc(CN2CCC(Oc3ccc(NC(=O)c4cccs4)cc3Cl)CC2)cc1, the IC50 was > 10 µM (HEK293; cell growth or viability).
For CCc1c(C)c2ccc(OCc3nnc(S)n3N)c(C)c2oc1=O, the viability was 3.46% (PC-3; cell growth or viability, MTT; 250 µg/mL).
With CO[C@H]1C[C@@H]2CC[C@@H](C)[C@@](O)(O2)C(=O)C(=O)N2CCCC[C@H]2C(=O)O[C@H]([C@H](C)C[C@@H]2CC[C@@H](OC(=O)C(C)(CO)CO)[C@H](OC)C2)CC(=O)[C@H](C)/C=C(\C)[C@@H](O)[C@@H](OC)C(=O)[C@H](C)C[C@H](C)/C=C/C=C/C=C/1C the IC50 was 0.052 µM (MB002; cell growth or viability; 7 days).
For CC(=NNC(N)=S)c1ccc(Nc2nnc(-c3ccc(Cl)cc3)c3ccccc23)cc1, the viability was 50.5% (MCF7; cell growth or viability, MTT; 0.156 µM, 24 h).
CC(=NNC(=O)COc1ccc2c(C)c(Cc3ccccc3)c(=O)oc2c1C)c1ccc(Br)cc1 gave a viability of 8.53% (PC-3; cell growth or viability, MTT; 125 µg/mL).
The inhibition of CCC(=CCc1c(O)cc2c(c1O)C(=O)C[C@H](c1ccccc1O)O2)CC is reported as 5.94% (HeLa; cell growth or viability, MTT; 7.5 µM, 48 h).
With Cc1[nH]c(C)c(-c2ccc(-c3ccc(OC(F)(F)F)cc3)cc2)c(=O)c1Cl the IC50 was > 10 µM (HEK293; cell growth or viability).
CCc1c(C)c2ccc(OCC=Cc3ccccc3)c(C)c2oc1=O has a viability of 6.77% (PC-3; cell growth or viability, MTT; 500 µg/mL).
For O=C(C=Cc1ccccc1)Nc1ccc(Oc2nnc(-c3ccc(Cl)cc3)c3ccccc23)cc1, the viability was 21.2% (MCF7; cell growth or viability, MTT; 2.5 µM, 24 h).
CCN(CC)c1nc(N)c2c(N)nc3c(c2c1C#N)C(=O)CN3Cc1ccccc1 gave an IC50 of > 10 µM (HEK293; cell growth or viability).
The inhibition of CN(O)N=Nc1ccc(S(=O)(=O)Nc2nccs2)cc1 is reported as 29.7% (ABTS scavenging; 20 µg/mL).
With Cc1n[nH]c2ccc3nc(-c4ccc(C(=O)NCCN(C)C)cc4F)c4c(c3c12)CCCCC4 the GI50 was 0.698 µM (ML-2; cell growth or viability; 72 h).
CCc1c(C)c2ccc(OCC(=O)NN=Cc3ccc([N+](=O)[O-])cc3)cc2oc1=O gave a viability of 18% (PC-3; cell growth or viability, MTT; 62.5 µg/mL).
For Cc1[nH]c(C)c(-c2ccc(CCc3ccc(F)cc3F)cc2)c(=O)c1Cl, the IC50 was > 10 µM (HEK293; cell growth or viability).
The remaining binding of C=CC(=O)N1CCC(COCC(=O)N2CCN(c3nc(-c4cnc(N)nc4C(F)F)nc(N4CCOC[C@@H]4C)n3)CC2)CC1 is reported as 96% (Rho-associated protein kinase 2 (ROCK2, Homo sapiens, UniProt O75116); binding, competition with immobilised ligand; 1 µM).
CC(=NNC(=O)c1ccccc1Cl)c1ccc(Nc2nnc(-c3ccc(Cl)cc3)c3ccccc23)cc1 gave a viability of 4.69% (MCF7; cell growth or viability, MTT; 10 µM, 24 h).
Cc1[nH]c(C)c(-c2ccc(C#Cc3ccc(F)cc3F)cc2)c(=O)c1Br has an IC50 of > 10 µM (HEK293; cell growth or viability).
CC(=NNC(=O)c1ccccc1)c1ccc(Nc2nnc(-c3ccc(Cl)cc3)c3ccccc23)cc1 gave a viability of 5.89% (MCF7; cell growth or viability, MTT; 10 µM, 24 h).
For CN(C)c1ccc(C=CC(=O)NC(=O)c2ccccc2O)cc1, the IC50 was > 10 µM (HEK293; cell growth or viability).

Some of these lines once more:
For CN(C)c1ccc(C=CC(=O)NC(=O)c2ccccc2O)cc1, the IC50 was > 10 µM (HEK293; cell growth or viability).
S=C(Nc1ccccc1)Nc1ccc(Oc2nnc(-c3ccc(Cl)cc3)c3ccccc23)cc1 has a viability of 2.79% (MCF7; cell growth or viability, MTT; 10 µM, 24 h).
For N#Cc1ccc(CN2CCC(Oc3ccc(NC(=O)c4cccs4)cc3Cl)CC2)cc1, the IC50 was > 10 µM (HEK293; cell growth or viability).
For Cc1[nH]c(C)c(-c2cccc(-c3ccc(OC(F)(F)F)cc3)c2)c(=O)c1Br, the IC50 was > 10 µM (HEK293; cell growth or viability).
The inhibition of CCC(=CCc1c(O)cc2c(c1O)C(=O)C[C@H](c1ccccc1O)O2)CC is reported as 5.94% (HeLa; cell growth or viability, MTT; 7.5 µM, 48 h).
